Assay results of several laboratories.
A part holds a random share of what one study measured. Changes are numbered by the printed parent chain.

Series 1 — technique: RNA Bind-n-Seq; molecule type: RNA; sample: in vitro; tested at: not given; reference: input RNA pool; reading: higher = stronger binding
Target: RING finger protein unkempt homolog, zinc fingers 1-6, GST-SBP tag (UNK, Homo sapiens, UniProt Q9C0B0, residues 30-357)
Notes: RNA with constant flanks, human and mouse sites, ends assumed
Constant ends, left off below: GGGAGUUCUACAGUCCGACGAUC … CAACAGAGGAUUGAGCAUCA
Target sequence (chain): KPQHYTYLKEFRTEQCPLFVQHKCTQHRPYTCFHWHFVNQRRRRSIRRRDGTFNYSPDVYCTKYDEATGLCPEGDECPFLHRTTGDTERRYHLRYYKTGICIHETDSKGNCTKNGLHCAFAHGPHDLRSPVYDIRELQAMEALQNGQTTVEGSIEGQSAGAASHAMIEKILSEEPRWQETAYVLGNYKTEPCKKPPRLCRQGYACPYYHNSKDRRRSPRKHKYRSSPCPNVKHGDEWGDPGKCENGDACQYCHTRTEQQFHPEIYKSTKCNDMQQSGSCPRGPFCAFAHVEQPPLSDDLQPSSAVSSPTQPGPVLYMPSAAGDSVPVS
Strand | bound/input enrichment [ratio]
CUUAAUUAGAGGGCAAUAUAUGUUUCAUAAAGAAGAGUCUUUAUAAUUUUGUUUGUCAGAUAGUAUUUUGGAAUUUGUAUAAUAAGGAUGUUUAGAAGCCAUAUAAGUGGCUUUUUUUAA | 9.4
GAUGUGGGAGCCGCCGCCGCCACCGCGCACAACGGCUUCUCCUGCAGCAACUGCAGCAUGCUGUCCGAGCGCAAGGACGUGCUCACGGCGCACCCCGCGGCCCCCGGGCCCGUGUCGAGA | 0.0848
UCAGGAUACUGUAGUUUCCUCUAUCUAAUAGAGAACUUUUUGUUAACAGACACUGUAAAAUAGUUUUGCUUUGUUGAAUAAUACGUGUGUACCUAAAAGAGGUAAGAGCAAAAAGUGUAA | 0.51
ACACCCACGAUCCAGUGUCUGCUUUACCUAUUUAUUUUUUAAGUUUUUUUAACGUCUGCUUUUAGAAGUGGAGCUUUGACAGGGUGUUUGCUCGAUAGAAAGGCAGCCUCUGUCCUUAAG | 7.37
UGUAUACUGUUUUACCCAAACCCAGCAAAAAUGCAUGUGUCUGUCCACCAAAGGACAUGCACUAGAAUAUUUAUAGCCUAAAACUGCACAAAACAGAACUAUCUUAAGGCACAUGUGCAA | 0.886
AAAACACUUUUUUAUAAUAUUUUCUCACUGAGACUCCCAGGGCUUUUACUAUCUCCAGAAUGUAUUUUUCCUUUUUCCGUAAGACUCAAAAGUAAUAUAAGGUCUACAAAAUCUACUAAA | 0.455
GGCAUGUUGGAUAUGUGCGGCUUUGAUACUGGAGCUCUGGAUGUAAUUCGAAAUUUCACAUUAGAUAUGAUUUAACCAUAAGCAGCAGCACGAUCCAGAGAUCCAUUGCCAUCAGUGAUC | 2.04
GAAAUGAAAUACUACAUAGUGCAUUUGAAACGCCACUUUAUGUUUCGAAACCAUCUCUGUUUAGUUUUUGAAAUGCUGUCCUACAACCUCUAUGACUUGCUGAGAAACACCAAUUUCCGA | 0.441
GGCACAAGAGAUGAUGACCUCUCAGCCACUGUUAACAUUAAACAUAAAGAAGGAAUCUACAGUAAGAGGGUAGUGACUAAGGCAUCCUUGCCAGUGGGAGAAAAACCCUUGCAGAAUGAA | 0.25
GAGGUAUUGGAAGCCUUGUAUGAUGGUAGCCUAGGAGACUGUAAAGAAGCUGCUGAAAUUUAUAGAGCAAAUUGUCAUAAGCUUUUCCCUUAUGCUUUGGCUUUCAUGCCUCCUGGAUAU | 0.268

Series 2 — target: CCNB2, cyclin fold, Cln2 fusion (human); technique: yeast growth competition, sequencing; sample: yeast; notes: strong parent motif; reference: not given; reading: higher = stronger binding
Parent: E2F1 docking peptide (human); PPVKRRLDFETDH; partner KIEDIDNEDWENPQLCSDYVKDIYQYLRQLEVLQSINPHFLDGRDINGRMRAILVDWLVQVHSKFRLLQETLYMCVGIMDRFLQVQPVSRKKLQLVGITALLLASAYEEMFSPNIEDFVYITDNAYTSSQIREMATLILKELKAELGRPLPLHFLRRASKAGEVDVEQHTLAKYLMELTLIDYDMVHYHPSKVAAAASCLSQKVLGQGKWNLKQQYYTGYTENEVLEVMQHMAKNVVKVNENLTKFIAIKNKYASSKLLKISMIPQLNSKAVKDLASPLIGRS
Change | normalised enrichment score
PPVKRRLDFMTDH [E10M] | 2.72
PPVKRRKDFETDH [L7K] | 0.0679
PPVKRRLDFEWDH [T11W] | 4.12
PPVKCRLDFETDH [R5C] | 2.19
PPVKRRLDFEGDH [T11G] | 3.65
PPVKRRLDFETGH [D12G] | 3.63
PDVKRRLDFETDH [P2D] | 3.47
PPVKRRLDFTTDH [E10T] | 3.1
PPHKRRLDFETDH [V3H] | 0.399
PPVRRRLDFETDH [K4R] | 4.42
PPVKRRLTFETDH [D8T] | 3.07
PPNKRRLDFETDH [V3N] | -0.22

Series 3 — technique: Sort-seq; item: YFP reporter; sample: E. coli; notes: PhoQ-PhoP variant library; with: 10 µM Mg2+; reference: high Mg2+ state; reading: higher = stronger signaling
Molecule: PhoQ, residues 284 288 289 292 302 303 GASLAW
target | fold induction
PhoP, residues 12 14 15 18 19 HHYTI (Escherichia coli, UniProt P23836) | 0.698
PhoP, residues 12 14 15 18 19 SFCSL (Escherichia coli, UniProt P23836) | 11.6
PhoP, residues 12 14 15 18 19 AYFRS (Escherichia coli, UniProt P23836) | 2.53

Series 4 — technique: RNA Bind-n-Seq; molecule type: RNA; sample: in vitro; tested at: 365 nM; reference: no-protein control; reading: higher = stronger binding
Target: RNA binding protein fox-1 homolog 2, RRM domain, GST-SBP tag (RBFOX2, Homo sapiens, UniProt O43251-10, residues 100-194)
Notes: natural RNA segment, single round, ends assumed
Constant ends, left off below: GGGAGUUCUACAGUCCGACGAUC … UGGAAUUCUCGGGUGCCAA
Strand | RBNS enrichment (R)
AGAAAAACUGCCAAGUUGUUUGGCAAGUGAUUGUUCUGAAAUACCUUGCAAGAUACCGAUAUUCAAGCUGUUGACAUACUCGUUGCCUACUUUAACAACUGUCAGAGAAA | 0.42
UUUGUUAUUAAAGCAUCCAGGGCAAUUUAAUAUUUGUUCCUAGAUGUAACUCAUUUGAAUAGGUUUUGCAUUUGUUAUUCAGCAGUGUAUAAAGCUAACCUUGAUAAUUU | 0.691
CUACCCUUCCAUGCCCCAGACCUCUGUCUUGCAUGUGACAAUUGACAAUCUGGACUACCCCAAGAUGGCACCCAAGUGUUUGGCUUCUGGCUACCUAAGGUUAACAUGUC | 2.03
ACACUGUUAUAGUUAAUCUGACAAAAAUGUCCUCAAAGAGUACUUUAUUUUAUUUAAAGCAUCUGUUUAAUUCAACCUUUAAUAAUUUUGCAAAGAAGGGUAUGUGUGUA | 0.804
GUCUGUCCUGUCUGGGCACUAACCUUGGUCCCAUGCAUGUUUAUGUUCUGGGUGGGGCUUUGCCUCUCCACUGGGAAACUGACUUUUGCUGGGUUGAACAGAGUCCCUUA | 0.537
UAUGGAAGUUGUAGCCCUCUGCAGCUCAGCCCUGUACAUAUACCUGUCCCUCUCUGGCUUGGUCCCCUUCCUCCCUACUUUCUGUAAAUAUCUGUAUCUAAACCAGAAUA | 0.442
CUGAGCGGGCCCUCCAGUGUUGUCCAAGGAAAUGUAGAAUCACUUUGUAGAUAUGGAGAUGAAGAAGACAAAUCUUUAUUAUAAUAUUGAUCAGUUUUAUGCCGCAUUGU | 0.526
GUUUUUUGAGAGAGACUGAGAGAACCAUAAUCCUUGCCUGCUGAACCCAGCCUGGGCCUGGAUGCUCUGUGAAUACAUUAUCUUGCGAUGUUGGGUUAUUCCAGCCAAAG | 0.388
GAAUUAUGUUUCCGAGGCACUGUUUUAUCUCUGUGAAUCUUGAAUAACUUUUUUAUAUUUGGGUUAUGAUGUCAAACGAUCCUAAGCGAAGAUGAUUUCAGUUCAUCAAA | 0.69
ACUUUUCCAAAGUGCCUUAAAAGAAGGGAGACAGACUCAUUGAGUGUGUUGCUUCUUUCUCUCCUAAAGCAAACCUCUGCCUUUUCUCUAUGCUGUUCGUGUUGGGUUUU | 0.455
AUCUCUUCUUGCCAGUAAGCAGCUUUGGUGGGCAGCAGCAGCUCAUGAAUGGCAAGCUGACAGCUUCUCCUGCUGUUUCCUUCCUCUCUUGGACUGAGUGGGUACGGCCA | 0.524
AUAUAUCAGCAGAGGCUUACCAAAGUCAUACCUGCUCUCCUCCACUAUUCUCUUCCAGAGUUUUCUUCAACUUCCAUCUUAUAAACCAAGGUAUUUAAAUUGUUCAUCUU | 0.674

Repeated from above (series 2):
Change | normalised enrichment score
PPNKRRLDFETDH [V3N] | -0.22
PPVKRRLDFETGH [D12G] | 3.63
PDVKRRLDFETDH [P2D] | 3.47
